Assay results pooled from the literature.
UniProt P10721, sequence (whole entry, unmodified, looked up): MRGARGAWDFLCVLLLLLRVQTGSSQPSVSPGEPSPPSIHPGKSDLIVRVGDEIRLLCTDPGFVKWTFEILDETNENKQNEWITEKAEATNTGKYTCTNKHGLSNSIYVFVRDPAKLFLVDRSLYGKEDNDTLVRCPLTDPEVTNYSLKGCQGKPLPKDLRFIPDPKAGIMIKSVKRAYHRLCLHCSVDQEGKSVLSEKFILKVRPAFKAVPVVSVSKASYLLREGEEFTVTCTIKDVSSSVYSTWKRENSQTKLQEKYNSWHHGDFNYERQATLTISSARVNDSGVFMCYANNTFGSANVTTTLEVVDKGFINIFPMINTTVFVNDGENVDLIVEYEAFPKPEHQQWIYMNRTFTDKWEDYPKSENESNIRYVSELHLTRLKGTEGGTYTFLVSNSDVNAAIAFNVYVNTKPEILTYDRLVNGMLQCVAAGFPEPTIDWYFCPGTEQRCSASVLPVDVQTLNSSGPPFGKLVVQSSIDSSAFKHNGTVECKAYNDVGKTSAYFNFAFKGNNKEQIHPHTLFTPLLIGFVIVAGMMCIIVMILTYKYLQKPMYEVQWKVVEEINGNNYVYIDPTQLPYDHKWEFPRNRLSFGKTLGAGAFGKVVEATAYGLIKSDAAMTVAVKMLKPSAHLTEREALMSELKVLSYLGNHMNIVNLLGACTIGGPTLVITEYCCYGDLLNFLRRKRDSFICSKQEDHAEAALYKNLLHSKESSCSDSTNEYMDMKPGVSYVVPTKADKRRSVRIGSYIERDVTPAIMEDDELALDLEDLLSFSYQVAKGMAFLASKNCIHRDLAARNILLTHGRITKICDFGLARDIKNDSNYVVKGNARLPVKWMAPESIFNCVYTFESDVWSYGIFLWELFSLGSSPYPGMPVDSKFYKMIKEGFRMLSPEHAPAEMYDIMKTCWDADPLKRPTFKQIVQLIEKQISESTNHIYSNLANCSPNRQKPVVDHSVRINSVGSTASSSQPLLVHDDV
UniProt P35462, sequence (whole entry, looked up): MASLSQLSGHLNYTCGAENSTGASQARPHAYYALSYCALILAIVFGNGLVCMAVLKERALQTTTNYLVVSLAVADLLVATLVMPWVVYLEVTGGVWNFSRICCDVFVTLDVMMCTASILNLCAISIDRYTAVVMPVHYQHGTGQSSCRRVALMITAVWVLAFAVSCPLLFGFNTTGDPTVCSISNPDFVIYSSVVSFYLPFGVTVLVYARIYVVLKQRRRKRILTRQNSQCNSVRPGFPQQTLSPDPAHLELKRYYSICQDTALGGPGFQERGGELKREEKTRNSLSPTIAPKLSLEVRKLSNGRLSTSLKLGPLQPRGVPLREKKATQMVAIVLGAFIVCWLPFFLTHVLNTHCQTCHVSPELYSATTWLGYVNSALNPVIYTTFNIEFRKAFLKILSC
UniProt O75582, sequence (whole entry, looked up): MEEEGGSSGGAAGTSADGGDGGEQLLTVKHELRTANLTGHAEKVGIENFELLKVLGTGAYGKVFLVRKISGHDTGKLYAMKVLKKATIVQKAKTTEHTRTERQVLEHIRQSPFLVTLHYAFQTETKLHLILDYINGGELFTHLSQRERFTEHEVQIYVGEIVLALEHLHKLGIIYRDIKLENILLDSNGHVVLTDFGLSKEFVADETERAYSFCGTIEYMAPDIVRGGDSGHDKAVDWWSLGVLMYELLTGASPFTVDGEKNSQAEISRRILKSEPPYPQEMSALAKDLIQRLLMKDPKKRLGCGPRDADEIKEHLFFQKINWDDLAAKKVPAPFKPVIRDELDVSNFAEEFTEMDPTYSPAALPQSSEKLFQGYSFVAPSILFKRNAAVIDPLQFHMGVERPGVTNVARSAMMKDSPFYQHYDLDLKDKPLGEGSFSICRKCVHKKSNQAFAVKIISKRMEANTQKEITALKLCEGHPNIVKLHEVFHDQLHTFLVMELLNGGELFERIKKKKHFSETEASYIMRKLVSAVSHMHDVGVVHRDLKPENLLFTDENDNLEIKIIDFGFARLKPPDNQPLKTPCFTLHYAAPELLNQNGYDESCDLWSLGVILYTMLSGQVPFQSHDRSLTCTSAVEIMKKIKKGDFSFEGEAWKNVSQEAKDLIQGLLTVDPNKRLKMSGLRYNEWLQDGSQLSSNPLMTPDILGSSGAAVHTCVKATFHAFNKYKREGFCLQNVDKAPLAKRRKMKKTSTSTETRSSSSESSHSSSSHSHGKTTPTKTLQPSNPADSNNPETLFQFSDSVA
UniProt Q9UKE5, sequence (whole entry, looked up): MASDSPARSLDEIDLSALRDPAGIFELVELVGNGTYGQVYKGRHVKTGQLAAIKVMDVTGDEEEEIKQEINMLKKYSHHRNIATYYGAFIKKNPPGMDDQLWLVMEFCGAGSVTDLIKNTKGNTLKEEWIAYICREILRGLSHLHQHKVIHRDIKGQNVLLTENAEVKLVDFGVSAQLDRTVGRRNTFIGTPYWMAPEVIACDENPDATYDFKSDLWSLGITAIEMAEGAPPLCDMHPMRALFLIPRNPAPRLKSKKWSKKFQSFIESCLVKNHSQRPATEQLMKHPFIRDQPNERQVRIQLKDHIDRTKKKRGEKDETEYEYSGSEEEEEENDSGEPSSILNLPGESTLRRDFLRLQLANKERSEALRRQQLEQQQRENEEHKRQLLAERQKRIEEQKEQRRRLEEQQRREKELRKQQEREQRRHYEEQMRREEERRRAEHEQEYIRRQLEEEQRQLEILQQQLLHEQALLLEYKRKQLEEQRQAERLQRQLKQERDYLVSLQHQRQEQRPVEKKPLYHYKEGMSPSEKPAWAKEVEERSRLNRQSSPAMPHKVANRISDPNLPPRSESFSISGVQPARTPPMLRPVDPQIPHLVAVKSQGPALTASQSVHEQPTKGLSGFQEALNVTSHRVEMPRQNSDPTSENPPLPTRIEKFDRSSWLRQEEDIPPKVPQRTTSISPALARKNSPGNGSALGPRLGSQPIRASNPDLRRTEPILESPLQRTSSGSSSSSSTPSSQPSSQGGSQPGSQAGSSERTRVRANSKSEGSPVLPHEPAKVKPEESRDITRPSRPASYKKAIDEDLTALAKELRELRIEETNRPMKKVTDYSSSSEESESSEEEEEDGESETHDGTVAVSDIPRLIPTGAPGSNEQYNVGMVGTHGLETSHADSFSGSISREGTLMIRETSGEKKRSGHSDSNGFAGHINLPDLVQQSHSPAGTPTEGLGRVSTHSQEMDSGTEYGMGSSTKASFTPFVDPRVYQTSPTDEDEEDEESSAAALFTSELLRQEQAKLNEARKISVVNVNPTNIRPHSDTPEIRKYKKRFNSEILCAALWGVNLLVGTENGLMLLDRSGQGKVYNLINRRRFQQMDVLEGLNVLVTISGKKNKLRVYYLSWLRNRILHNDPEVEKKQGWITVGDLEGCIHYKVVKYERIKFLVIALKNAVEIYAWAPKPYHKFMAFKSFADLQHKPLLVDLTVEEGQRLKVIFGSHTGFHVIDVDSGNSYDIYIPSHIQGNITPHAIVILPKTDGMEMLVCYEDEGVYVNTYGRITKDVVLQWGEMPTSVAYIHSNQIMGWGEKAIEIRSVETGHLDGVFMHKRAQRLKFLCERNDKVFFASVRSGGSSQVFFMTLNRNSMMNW
UniProt Q15418, sequence (whole entry, looked up): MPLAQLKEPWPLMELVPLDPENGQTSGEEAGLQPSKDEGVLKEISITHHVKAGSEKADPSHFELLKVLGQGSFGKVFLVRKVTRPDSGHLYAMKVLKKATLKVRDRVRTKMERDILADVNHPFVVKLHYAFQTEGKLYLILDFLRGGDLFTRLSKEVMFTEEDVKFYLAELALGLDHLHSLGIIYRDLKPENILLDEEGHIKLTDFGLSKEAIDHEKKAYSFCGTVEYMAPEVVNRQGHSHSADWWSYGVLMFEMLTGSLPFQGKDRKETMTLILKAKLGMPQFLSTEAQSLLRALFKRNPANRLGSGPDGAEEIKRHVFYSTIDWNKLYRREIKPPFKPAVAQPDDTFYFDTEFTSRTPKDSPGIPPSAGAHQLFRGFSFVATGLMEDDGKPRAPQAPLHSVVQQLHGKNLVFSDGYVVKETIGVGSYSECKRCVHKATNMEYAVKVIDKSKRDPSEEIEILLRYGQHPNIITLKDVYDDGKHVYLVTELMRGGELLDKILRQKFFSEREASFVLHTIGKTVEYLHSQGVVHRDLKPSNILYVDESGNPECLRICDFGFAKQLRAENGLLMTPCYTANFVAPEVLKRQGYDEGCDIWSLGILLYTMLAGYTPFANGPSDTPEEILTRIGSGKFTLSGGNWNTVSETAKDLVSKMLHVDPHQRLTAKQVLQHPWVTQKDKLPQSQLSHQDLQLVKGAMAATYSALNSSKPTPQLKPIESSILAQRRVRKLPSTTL
UniProt Q9HBH9, sequence (whole entry, looked up): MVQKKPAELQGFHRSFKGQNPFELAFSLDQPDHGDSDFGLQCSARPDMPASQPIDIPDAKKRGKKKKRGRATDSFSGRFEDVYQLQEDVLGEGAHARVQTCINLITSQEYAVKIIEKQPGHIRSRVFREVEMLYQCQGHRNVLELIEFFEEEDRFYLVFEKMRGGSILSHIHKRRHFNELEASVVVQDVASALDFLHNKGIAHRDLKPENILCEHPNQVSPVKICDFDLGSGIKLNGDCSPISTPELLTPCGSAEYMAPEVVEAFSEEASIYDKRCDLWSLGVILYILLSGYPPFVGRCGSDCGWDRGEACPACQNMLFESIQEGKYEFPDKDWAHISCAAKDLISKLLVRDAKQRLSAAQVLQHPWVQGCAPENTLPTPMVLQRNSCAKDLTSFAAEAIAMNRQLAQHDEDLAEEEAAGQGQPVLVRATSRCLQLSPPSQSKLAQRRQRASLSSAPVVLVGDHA

SMILES	target	effect on	mode	technique	concentration	together with	inhibition
CC(C)[C@H]1NC(=O)C[C@H]2/C=C/CCSSC[C@@H](NC1=O)C(=O)N[C@H](Cc1cccc3ccccc13)C(=O)NCC(=O)O2	Tyrosine-protein kinase FRK (FRK, Homo sapiens, UniProt P42685)	enzyme activity	inhibitor		10 µM		-3.7%
CS(C)(=O)=Nc1ccc(-c2ccc(-c3nc4cc(O[C@@H]5CO[C@H]6[C@@H]5OC[C@H]6O)[nH]c4cc3F)cc2)cc1	MAP kinase-interacting serine/threonine-protein kinase 2 (MKNK2, Homo sapiens, UniProt Q9HBH9)	enzyme activity	inhibitor		10 µM		9%
C[C@H](NCc1ccc(-c2ccc(C(F)(F)F)cc2)cc1)C(N)=O	Mast/stem cell growth factor receptor Kit (KIT, Homo sapiens, UniProt P10721, T670I/V559D)	cell-free assay		competition with immobilised ligand	1 µM		5%
O=C(O)c1ccccc1/C=N/Nc1nc(-c2ccccc2Cl)cs1	Ribosomal protein S6 kinase alpha-1 (RPS6KA1, Homo sapiens, UniProt Q15418)	enzyme activity	inhibitor		1 µM		-2.4%
CN[C@@H]1[C@H](O)[C@H](NC)[C@H]2O[C@]3(O)[C@H](O[C@@H]2[C@H]1O)O[C@H](C)C[C@H]3NC(=O)Cc1ccc(Cl)cn1	D(3) dopamine receptor (DRD3, Homo sapiens, UniProt P35462)	ligand displacement		radioligand	10 µM		10%
CN(/N=C/c1ccccc1C(=O)O)c1nc(-c2ccccc2Cl)cs1	TRAF2 and NCK-interacting protein kinase (TNIK, Homo sapiens, UniProt Q9UKE5)	enzyme activity	inhibitor		1 µM		-6.85%
N[C@H](C(=O)N1CCCC1)C1CCN(c2nccc3c(-c4ncc(Cl)cc4Cl)cccc23)CC1	Protein-arginine deiminase type-2 (PADI2, Homo sapiens, UniProt Q9Y2J8)	enzyme activity		GDH-coupled	0.01573 µM	1.5 mM Ca2+ (high)	2.45%
COc1ccc(F)cc1S(=O)(=O)Nc1cnc2c(c1)C(=O)NCCO2	AMPA glutamate receptor	radioligand binding			10 µM		0%
CN(C)[C@H]1C[C@@]23CC[C@@]4(O2)C(=CC[C@]2(C)[C@@H](c5ccc6ccncc6c5)CC[C@H]24)C=C3[C@@H](O)[C@@H]1O	Ribosomal protein S6 kinase alpha-5, N-terminal kinase domain (RPS6KA5, Homo sapiens, UniProt O75582)	ATP probe labelling	inhibitor	KiNativ profiling	0.1 µM		4.9%

A few entries again:
SMILES	target	effect on	mode	technique	concentration	together with	inhibition
CC(C)[C@H]1NC(=O)C[C@H]2/C=C/CCSSC[C@@H](NC1=O)C(=O)N[C@H](Cc1cccc3ccccc13)C(=O)NCC(=O)O2	Tyrosine-protein kinase FRK (FRK, Homo sapiens, UniProt P42685)	enzyme activity	inhibitor		10 µM		-3.7%
